# Experimental data pooled from the literature.
# Several values in a cell are separate wells, animals, samples, runs or records. ± marks the error that the study gave.
# pyrD: Dihydroorotate dehydrogenase (quinone) (pyrD, Acinetobacter baumannii, UniProt B7GZW7)
# P2RX4: P2X purinoceptor 4 (P2RX4, Homo sapiens, UniProt Q99571)
# CDC28: Cyclin-dependent kinase 1 (CDC28, Candida albicans, UniProt P43063)
# Kir3.1/Kir3.4: Kir3.1/Kir3.4 (Homo sapiens, UniProt P48544+P48549)
# AKR1B1: Aldo-keto reductase family 1 member B1 (AKR1B1, Homo sapiens, UniProt P15121)
# T1: riboswitch RNA yjdF aptamer domain (Bacillus subtilis); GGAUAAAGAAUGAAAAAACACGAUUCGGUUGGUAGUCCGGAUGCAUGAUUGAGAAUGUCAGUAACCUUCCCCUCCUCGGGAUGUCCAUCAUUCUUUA
# T2: ssDNA, aptamer; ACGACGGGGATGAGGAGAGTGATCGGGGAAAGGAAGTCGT
Compound,tested on,assay,system,setting,scale,endpoint,result
Cc1cc(Nc2ccc(C(F)(F)F)cc2)n2nc(S(C)(=O)=O)nc2n1,pyrD,"enzyme activity, inhibitor, colorimetric HTS, item: DCIP reduction",,3 µM,direction not given,robust Z-score,17.4
O=C(O)C1=CC(=C(c2ccc(O)c(C(=O)O)c2)c2ccc(O)c(C(=O)O)c2)C=CC1=O,P2RX4,patch clamp,,"4 µM, unit not given",relative to: baseline,remaining current,0.887 ± 0.027
c1ccc(-c2n[nH]cc2-c2ccnc3ccccc23)nc1,CDC28,"kinase binding, competitor, MIB/MS competition, item: CDC28",Candida albicans cell lysate,100 nM,relative to: DMSO,log2 fold change,1.38
COc1cc(CNCCc2ccccc2)ccc1Oc1ccc(C(N)=O)cn1,"Mu-type opioid receptor, with Gi1 (OPRM1, Homo sapiens, UniProt P35372)","Gαi1 dissociation, antagonist, BRET2 TRUPATH",HEK-293T,added: DAMGO EC80,relative to: naloxone,Imax,111 ± 1.9%
Cc1cc(Nc2ccc(C(F)(F)F)cc2)n2nc(C(C)(F)F)nc2n1,pyrD,"enzyme activity, inhibitor, colorimetric HTS, item: DCIP reduction",,3 µM,direction not given,robust Z-score,18.5
CCc1cnn2c(NCc3ccc[n+]([O-])c3)cc(N3CCCC[C@H]3CCO)nc12,"BRD4 (Homo sapiens, UniProt O60885)","19F NMR, item: tyrosine 118",,186 µM,relative to: free protein,chemical shift change,-0.036 ppm
O=C(Nc1ccccc1OS(=O)(=O)c1ccc([N+](=O)[O-])cc1)c1ccc2ncccc2c1,P2RX4,calcium mobilization,MCF7 stably transfected,"100 µM, added: ATP 100 µM",,fluorescence increase,76.3 ± 0.57%
Cc1cc(NC(=O)CNC2CCNCC2)n(C2CCS(=O)(=O)C2)n1 (stereo not shown),Kir3.1/Kir3.4,"activator, thallium flux",HEK293,concentration not given,,activity,inactive
NCCS(=O)(=O)O,"SLC6A6 (Homo sapiens, UniProt P31641, S402A)","binding, microscale thermophoresis",,"244 nM, room temperature, added: 50 nM labelled protein",higher = more binding,normalised MST signal,-0.0599
O=c1nc(SCc2cc(F)cc(C(F)(F)F)c2)nc(SCc2ccc3nc(Cl)ccc3c2)[nH]1,"TOP2A (Homo sapiens, UniProt P11388)",ATPase activity,,"15.6 µM, added: ATP 0.05 mM",,ATP hydrolysis rate,0.342 µM/min and 0.384 µM/min
Cc1cccc(N2CC(C(=O)O)CC2=O)c1 (stereo not shown),"Protein transport protein Sec31A (SEC31A, Homo sapiens, UniProt O94979)","binding, affinity selection mass spectrometry",,,relative to: other proteins in batch,log fold enrichment,-0.0223
Cc1cc(NC(=O)C2CCc3ccccc3O2)n(C2CCS(=O)(=O)C2)n1 (stereo not shown),Kir3.1/Kir3.4,"thallium flux, activator",HEK293,,relative to: standard compound,Emax,21%
C[C@H](NCc1ccc(OCc2cccc(F)c2)cc1)C(N)=O,"MAOB (Homo sapiens, UniProt P27338)","enzyme activity, reversible inhibitor",,"concentration not given, 15 min pre-incubation",,activity recovery time,48 min
Nc1ccn([C@H]2C[C@H](O)[C@@H](COP(=O)(O)OP(=O)(O)OP(=O)(O)O)O2)c(=O)n1,"DNA polymerase beta (POLB, Homo sapiens, UniProt P06746)","nucleotide incorporation, substrate, steady-state kinetics",,added: AP-site primer-template,,Km,2 µM
O=C(CN1C(=O)S/C(=C\c2cccc(Br)c2)C1=O)c1ccc([N+](=O)[O-])cc1,AKR1B1,"enzyme activity, inhibitor",,,,log IC50,2.61 log nM
Nc1nc2c(ncn2[C@@H]2O[C@H](COP(=O)(O)O)[C@@H](O)[C@H]2O)c(=O)[nH]1,"GUK1 (Homo sapiens, UniProt Q16774, S37P)","enzyme activity, NADH-coupled",,125 µM,,reaction rate,0.805 s⁻¹ and 0.472 s⁻¹ and 0.73 s⁻¹
COc1ccc2c(c[n+](C)c3c4cc5c(cc4ccc23)OCO5)c1OC,"T1, riboswitch RNA yjdF aptamer domain (Bacillus subtilis)",fluorescence titration,,,,Kd,0.43 nM
NCCCCC(=O)O,"SLC6A6 (Homo sapiens, UniProt P31641, G62A)","binding, microscale thermophoresis",,"3.91 µM, room temperature, added: 50 nM labelled protein",higher = more binding,normalised MST signal,0.0167
O=c1cc(-c2ccc([N+](=O)[O-])cc2)[nH]c2c(-c3ccc(Cl)cc3)c(Cc3ccccc3)nn12,"Heme-binding protein 1 (HEBP1, Homo sapiens, UniProt Q9NRV9)","thermal stability, binder, thermal proteome profiling","RD, cell lysate","50 µM, 0.5% DMSO",relative to: DMSO vehicle,melting temperature shift,3.9 °C
C[C@H](CCC(C)(C)O)[C@H]1CC[C@H]2[C@@H]3CC=C4C[C@@](C)(O)CC[C@]4(C)[C@H]3CC[C@]12C,"Glutamate NMDA receptor; GRIN1/GRIN2B (GRIN1/GRIN2B, Homo sapiens, UniProt Q05586+Q13224)","ion current, positive allosteric modulator, two-electrode voltage clamp",Xenopus oocytes,"10 µM, wild type, added: 1000 µM glutamate, glycine",relative to: absence of compound,current potentiation,199 ± 12%
Nc1ncnc2c1ncn2[C@@H]1O[C@H](COP(=O)(O)OP(=O)(O)OP(=O)(O)O)[C@@H](O)[C@H]1O,"T2, ssDNA, aptamer",ITC,,,,Kd,1000 nM
CCN1CCC[C@H]1CNC(=O)c1c(O)c(Cl)cc(Cl)c1OC,"Probable G-protein coupled receptor 173 (GPR173, Homo sapiens, UniProt Q9NS66)","β-arrestin recruitment, TANGO luminescence, item: GPR173",,concentration not given,relative to: basal luminescence,log2 fold change,0.453
Nc1ncnc2c1ncn2[C@@H]1O[C@H](C[C@@H](N)CC[C@H](N)C(=O)O)[C@@H](O)[C@H]1O,"O-methyltransferase (Sorghum bicolor, UniProt A0A1B6PFV1)",ITC,,added: PTR+,,-TΔS,2.74 kcal/mol
O=C(CN1C(=O)S/C(=C\c2ccc([N+](=O)[O-])cc2)C1=O)c1ccc([N+](=O)[O-])cc1,AKR1B1,"enzyme activity, inhibitor",,,,log IC50,2.36 log nM
C=CC(=O)N1CCC[C@@H](n2nc(-c3ccc(Oc4ccccc4)cc3)c3c(N)ncnc32)C1,"INSRR (Homo sapiens, UniProt P14616)",,,10 µM,,remaining activity,114%
CN(C)C(=O)C(CCN1CCC(O)(c2ccc(Cl)cc2)CC1)(c1ccccc1)c1ccccc1,"Calcium-activated potassium channel subunit alpha-1, with LRRC26 γ1 subunit (KCNMA1, Homo sapiens, UniProt Q12791)","ion current, inside-out patch, fit of G-V curve",BKα/γ1 channel,"3 µM, added: nominally 0 Ca2+",,V1/2,-1.85 mV
CCNC(=O)/C=C/c1cccc(Br)c1,"SLC6A19 (Homo sapiens, UniProt Q695T7)","inhibitor, FLIPR membrane potential",CHO-BC cells,"0.003 µM, unit not given",relative to: no inhibitor,remaining transport activity,0.975
COc1cc(F)ccc1-c1ncnc(Nc2cccc(C[S@](C)(=N)=O)c2)n1,"BRSK1 (Homo sapiens, UniProt Q8TDC3)",kinase activity,,"10 µM, added: 10 µM ATP",,remaining activity,92%
Nc1ncnc2c1ncn2[C@@H]1O[C@H](COP(=O)(O)CP(=O)(O)OP(=O)(O)O)[C@@H](O)[C@H]1O,"P2X purinoceptor 1 (P2RX1, Homo sapiens, UniProt P51575, E122A)",calcium influx,,10 µM,relative to: ionomycin response,calcium influx,95.2% and 100% and 94.3%
N[C@@H](Cc1ccc(O)cc1)C(=O)O,,"binding, MIDAS equilibrium dialysis LC-MS",A2AR-BRIL thermostabilized,concentration not given,relative to: no-protein control,log2 fold change,-0.0104
Cc1ccc(C(=O)Nc2ccc3ccccc3c2)o1,"Otop1 (Mus musculus, UniProt Q80VM9)","acid-evoked current, whole-cell patch-clamp",HEK293T,"concentration not given, pH 5.5, co-applied with acid",,activation time constant,421 ms and 400 ms and 259 ms and 590 ms and 366 ms
CC(C)C[C@H](N)C(=O)O,"snf (Aquifex aeolicus, UniProt O67854)",scintillation proximity,,"10 nM LeuT, added: clomipramine 1 mM",,Bmax,5660 ± 197 cpm/pmol LeuT
CC(C)C[C@H](N)C(=O)Nc1ccc2ccccc2c1,rat aminopeptidase III,substrate,,MW 110 kDa,,kcat,4.13 s⁻¹
NC(CCCC(=O)O)C(=O)O (stereo not shown),,"binding, MIDAS equilibrium dialysis LC-MS",A2AR-BRIL thermostabilized,concentration not given,relative to: no-protein control,log2 fold change,-0.105
CSCC[C@H](N)C(=O)Nc1ccc2ccccc2c1,rat aminopeptidase III,substrate,,MW 110 kDa,,kcat,5.17 s⁻¹
CC1=NNC(=S)NC(=O)C1/N=N/c1ccc(S(N)(=O)=O)cc1 (stereo not shown),bovine α-glucosidase,"enzyme activity, inhibitor, glucose oxidase",,"500 µg/mL, added: maltose",,inhibition,36.7%
c1coc(-c2n[nH]cc2-c2ccnc3ccccc23)c1,CDC28,"kinase binding, MIB/MS competition",Candida albicans lysate,10 µM,"relative to: DMSO, negative = stronger binding",log2 fold change,-0.17
CCc1nc2nc(C)cc(Nc3ccc(C(F)(F)F)c(F)c3)n2n1,pyrD,"enzyme activity, inhibitor, colorimetric HTS, item: DCIP reduction",,3 µM,direction not given,robust Z-score,16.5
Nc1ncnc2c1ncn2[C@@H]1O[C@H](COP(=O)(O)OP(=O)(O)OP(=O)(O)O)[C@@H](O)[C@H]1O,"P2X purinoceptor 7 (P2rx7, Rattus norvegicus, UniProt Q64663, I214A)","ion current, agonist, two-electrode voltage clamp",Xenopus laevis oocytes,2700 µM,relative to: highest concentration response,normalized current,1 and 0.993 and 0.997
C=CC(=O)N1CCC(COCC(=O)N2CCN(c3nc(-c4cnc(N)nc4C(F)F)nc(N4CCOC[C@@H]4C)n3)CC2)CC1,"PNCK (Homo sapiens, UniProt Q6P2M8)",KINOMEscan,,1 µM,relative to: DMSO control,remaining binding,97%
